# Published values from different studies.
# Each numbered part is a random draw from the data of one study; scales do not carry over between parts.

# Set 1
# Target: ATP-dependent RNA helicase DDX3X, helicase core (DDX3X, Homo sapiens, UniProt O00571, residues 132-607)
# Chain of UniProt O00571 (132-607, looked up): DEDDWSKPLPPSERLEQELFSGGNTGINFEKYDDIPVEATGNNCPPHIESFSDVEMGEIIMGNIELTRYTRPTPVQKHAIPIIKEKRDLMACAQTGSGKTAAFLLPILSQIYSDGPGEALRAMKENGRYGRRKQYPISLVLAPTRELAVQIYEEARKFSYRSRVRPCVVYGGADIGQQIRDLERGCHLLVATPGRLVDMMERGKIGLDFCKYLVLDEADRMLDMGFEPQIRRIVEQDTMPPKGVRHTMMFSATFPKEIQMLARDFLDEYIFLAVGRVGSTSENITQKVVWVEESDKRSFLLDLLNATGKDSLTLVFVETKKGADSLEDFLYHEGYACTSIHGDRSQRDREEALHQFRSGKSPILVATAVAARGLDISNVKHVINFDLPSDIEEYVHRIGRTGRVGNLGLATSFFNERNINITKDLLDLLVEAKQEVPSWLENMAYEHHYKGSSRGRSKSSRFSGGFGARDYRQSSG
# Method: RNA Bind-n-Seq
# Form: RNA
# Sample: in vitro
# Concentration: 90 pmol
# Setting: 4-mer, random 30-nt RNA, single round
# Added: 3 µM DMDA-PatA, 2 mM ADP, 2 mM phosphate
# Reference: input library
# Reading: higher = stronger binding
Strand,4-mer enrichment [fold]
GAAA,1.12
CUCC,1
GUAU,1.05
UGUA,1.05
GUAC,0.889
CGUC,1.02
UGUG,1.18
UACC,0.917
CACG,0.984
CUGC,0.838
ACAA,1.08
AAUA,1.09
AUCU,0.808
CUCA,0.909

# Set 2
# Target: Sal-like protein 4, full length isoform B (SALL4, Homo sapiens, UniProt Q9UJQ4-2, residues 1-616)
# Method: universal PBM
# Form: double-stranded DNA, one strand shown
# Sample: in vitro
# Concentration: not given
# Setting: 8-mer, flanks averaged, mean of replicates
# Reading: higher = stronger binding
# Target sequence (chain): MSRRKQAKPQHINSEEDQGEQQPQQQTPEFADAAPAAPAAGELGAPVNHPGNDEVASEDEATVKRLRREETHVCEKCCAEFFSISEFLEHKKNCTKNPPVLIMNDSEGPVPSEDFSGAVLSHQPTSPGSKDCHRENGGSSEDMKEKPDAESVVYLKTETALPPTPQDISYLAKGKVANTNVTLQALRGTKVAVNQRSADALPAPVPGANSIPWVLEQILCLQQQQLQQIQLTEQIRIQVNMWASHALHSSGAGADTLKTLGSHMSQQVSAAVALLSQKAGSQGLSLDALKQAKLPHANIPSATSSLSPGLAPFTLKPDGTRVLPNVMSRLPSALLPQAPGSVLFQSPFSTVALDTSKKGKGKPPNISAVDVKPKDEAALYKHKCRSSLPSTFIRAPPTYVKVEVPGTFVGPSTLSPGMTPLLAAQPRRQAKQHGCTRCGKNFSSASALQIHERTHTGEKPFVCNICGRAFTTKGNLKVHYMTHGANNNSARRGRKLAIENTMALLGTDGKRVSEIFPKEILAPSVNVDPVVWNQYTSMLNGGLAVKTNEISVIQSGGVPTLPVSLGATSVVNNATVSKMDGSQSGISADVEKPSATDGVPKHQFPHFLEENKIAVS
Strand,E-score
GAGTCAAA,7e-05
GAAAGACA,0.11
ACGGCCGC,-0.276
ACAAACCG,-0.0618
GTCTCGCA,-0.0874
AGCCCTTG,-0.203
ACCACCGC,-0.285
CGGTCGGA,-0.299
ATCCACGA,0.0997
GGGAGCAC,-0.217
ATAATCCA,0.28
CTGGGGTC,-0.287
CAGCTCTC,-0.204
CGCGTGTA,-0.0578
ACTGCTGA,-0.171
AGGAAAAC,0.0183
GCGTCACA,-0.089
CACGGCCA,-0.304
TGAGAGAA,0.126
AAATTTCA,0.213
AACATACG,0.176
ACGGCAAA,-0.0316
GGAAATCA,0.117
CTCGGAGC,-0.229
CACCCATA,-0.106

# Set 3
# Target: Interferon regulatory factor 5, full length, phosphomimetic (IRF5, Homo sapiens, UniProt Q13568-2, residues 1-514, S451D/S453D/S456D/S462D)
# Method: protein-binding microarray
# Form: double-stranded DNA, one strand shown
# Sample: in vitro
# Concentration: 940 nM top
# Setting: 60-bp whole probe
# Added: salmon DNA 0.4 mg/ml
# Reference: random background probes
# Reading: higher = stronger binding
# Constant ends, left off below: GCCTAGCAC … GTCTTGATTCGCTTGACGCTGCTG
Strand,fitted relative affinity [z-score]
TTAGGACTGGGTATCGCTTAGTGCTAG,0.975
TCAGTTCTCCCTTTCAGTTTGTGCTAG,1.6
TCAACTCTTTACATGGGACTGTGCTAG,0.619
TTAAGTCTCCTTATCCTTTAGTGCTAG,0.865
GACGGCATCGGTTTCGGGACGTGCTAG,2.76
AACGATTCCAGTTTCGAGACGTGCTAG,4.04
GTAGGTTTCGGACTGGGTTAGTGCTAG,6.41
CACGGTATCGGTCTCGGGACGTGCTAG,7.49
GACGGCCTGCTTATCCTGACGTGCTAG,-0.092
GACTGTATCGGGTTTCGGGACGTGCTA,3.05
TTAGAACTGAGTCTTGATTAGTGCTAG,-0.194
TTAGGGCTGCTTATCCTTTAGTGCTAG,-0.33
TTAGGACTGGACTTTCGGTTTGTGCTA,2.36
TTATATACCTGTATATCTTCGTGCTAG,0.05
GACGGTAGCGACACTGGGGACGTGCTA,-0.0376
TTAGGACTGCTTATCCTTTAGTGCTAG,-0.398
GACGAACTGAGTCTAGAGACGTGCTAG,-0.617

# Set 4
# Target: RNA binding protein fox-1 homolog 2, RRM domain, GST-SBP tag (RBFOX2, Homo sapiens, UniProt O43251-10, residues 100-194)
# Method: RNA Bind-n-Seq
# Form: RNA
# Sample: in vitro
# Concentration: 365 nM
# Setting: natural RNA segment, single round, ends assumed
# Reference: no-protein control
# Reading: higher = stronger binding
# Target sequence (chain): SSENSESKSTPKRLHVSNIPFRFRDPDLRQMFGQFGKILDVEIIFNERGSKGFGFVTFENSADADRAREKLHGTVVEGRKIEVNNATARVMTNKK
Strand,RBNS enrichment (R)
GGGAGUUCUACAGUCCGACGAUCUCUGCUGAACCAUUUUUCUUAGGAUGCAGCCGUCUCACUCCCUUGUCCUGUAAAUCGUGUAUUCAUGUUGAUGAUUCUUGGAGAUAGGUUUCACUUUUUCCCAGCUGCGUUGGAAUUCUCGGGUGCCAA,0.607
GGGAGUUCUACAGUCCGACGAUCUUCUCAAAGCCUGUCUUCAAAAAAGCUGAGGCAAAAUGCUAAUAUUAAUUCAGCCUGGCCUCGAAACACUGUCCUGAGCACCCGUCAACUCUGAGAGGAAGUGUGGAGAGUGGAAUUCUCGGGUGCCAA,0.499
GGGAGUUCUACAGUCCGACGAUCUCCCCCCACCUUUUUUCCCCUUGUCCUUGCAGCUGGAGAUGUGCUGGGAGUAGCAGGCCAGCCUCGGAAAUGGACAUGGGGACCUCGUGGAAGCCACAGCAACCUGGUUGUGGAAUUCUCGGGUGCCAA,0.462
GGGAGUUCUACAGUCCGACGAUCUGAAUAGAGUAAUAGAUAUUACUGGAAACUGAUUUGUUUUUUUUUUCCUAUUAUACUCUGCUUUAUUGAAAAAGUAAAGCAUUUAAAAUUGUGCUCCAGAAAUUCAGAUGUGGAAUUCUCGGGUGCCAA,0.381
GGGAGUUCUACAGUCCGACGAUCAAAUAUUAUACUUUAUAGCAGUGGAUUACCAACACCUUGACUUCUUUGUUACAGUGCUAACAUCUUUUUUUUUGUGCAGGUAUCCAUGAUUAUUAAGCAGGGUGGAAGUUUGGAAUUCUCGGGUGCCAA,0.408
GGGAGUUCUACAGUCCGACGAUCGAGAAAAGGAUGUGACUGCCCAUCCUAGGUAUACUGGCUGUCUCCCUCAGUGGAGAAGAUGAGAAGAACAUCUUGGGGUGCUUUUCUGUUAUAGGGUCCCCUCCCUGACGUGGAAUUCUCGGGUGCCAA,0.459
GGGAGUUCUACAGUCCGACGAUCUUGAGGCUGGAACUUGCUCUCUCUGCCCCUAUUUCCUUGUAAAGAGGGAGCACAUUGACUUGGGAAUUUCCUCCAGGAAACUCAGGGCUGUUUUCUCUUCCCUUAGGUUGUGGAAUUCUCGGGUGCCAA,0.264
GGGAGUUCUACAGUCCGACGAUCAGCCUUCAGAUGCCCAUCGUGUGAGAGGCGCUGCCUGUUGAUGAAGUGUGUGACCUUUUCUCCUGCUGAGUGGGAGAUCCCAGGGUCCCACACGCCUCACCUCGGUGAGUUGGAAUUCUCGGGUGCCAA,0.272
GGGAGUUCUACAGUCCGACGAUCUUUAUAAACUCAAAUUGGCACCUACUGAAUUAAAAUACAUAAAAUCAUUUAAAUAUAAUUCAGCAUAUGGGAAGUAACAUUGCACUAAUAUGGAAAUCACUGCCAGAGACUGGAAUUCUCGGGUGCCAA,0.659
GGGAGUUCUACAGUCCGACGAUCUGUGUUAAAUAAAUGUGUAAAGUAACCACCAAAUGUUAUUAGAAUUUUUCUUCUAGCAUUUAUAAUUUUUUCAACUCCUAUUGUGUUUCUUUGUGUGUGAUAUUUUAAUCUGGAAUUCUCGGGUGCCAA,0.895
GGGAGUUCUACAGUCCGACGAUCAGUAACCACCUAUUUAUUUUACCUCUUUCCCAAACCUGGAGCAUUUAUGCCUAGGCUUGUCAAGAAUCUGUUCAGUCCCUCUCCUUCUCAAUAAAAGCAUCUUCAAGCUUUGGAAUUCUCGGGUGCCAA,1.12
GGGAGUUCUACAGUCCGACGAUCUGUCUGGGACCCCUUUCUGUGCAUGGGUGCAAUGAUUUAGCCAUGGCUGUGGGCUAUCUGGGUACAAUGAUUUAGCCGUGGCUGUGGGCUAUCUGGGUGCAAUGAUUUAGUGGAAUUCUCGGGUGCCAA,14

# Set 5
# Target: Histone acetyltransferase KAT6A, winged helix 1, GST fusion (KAT6A, Homo sapiens, UniProt Q92794, residues 1-85)
# Method: protein binding microarray
# Form: double-stranded DNA, one strand shown
# Sample: in vitro
# Concentration: not given
# Setting: 8-mer, flanks averaged, mean of 2 arrays, mostly near background
# Reference: not given
# Reading: higher = stronger binding
# Residues (chain): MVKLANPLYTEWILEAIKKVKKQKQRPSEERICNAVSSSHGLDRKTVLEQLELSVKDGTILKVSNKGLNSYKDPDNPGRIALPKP
Strand,E-score
TCTCAACA,-0.122
AGTAGTAA,-0.0904
AGCAACCT,0.0306
GGAAACTA,-0.0898
AGGTACTC,-0.0886
CGAGGGTC,0.137
CACAGGCA,-0.237
GGGAAAAC,0.0598
ACTTGGAG,-0.123
CCCGCTTC,0.19
CAACGGGG,0.0804
CAATATCC,0.00458
AACCGCAC,-0.0172
TATAATCA,-0.102
ACGGATAG,0.169
CATCCTAG,-0.132
CCGGACAC,0.215

# Set 6
# Target: RING finger protein unkempt homolog, zinc fingers 1-6, GST-SBP tag (UNK, Homo sapiens, UniProt Q9C0B0, residues 30-357)
# Chain of UniProt Q9C0B0 (30-357, looked up): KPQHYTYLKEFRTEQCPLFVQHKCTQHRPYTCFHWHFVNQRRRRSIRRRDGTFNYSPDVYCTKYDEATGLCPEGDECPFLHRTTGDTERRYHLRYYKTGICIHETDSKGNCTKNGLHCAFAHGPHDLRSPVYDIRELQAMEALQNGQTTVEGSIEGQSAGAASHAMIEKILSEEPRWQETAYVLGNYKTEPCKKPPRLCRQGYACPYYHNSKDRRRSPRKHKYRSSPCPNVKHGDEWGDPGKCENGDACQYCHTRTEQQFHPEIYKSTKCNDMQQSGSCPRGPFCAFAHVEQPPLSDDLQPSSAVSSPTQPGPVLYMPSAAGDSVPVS
# Method: RNA Bind-n-Seq
# Form: RNA
# Sample: in vitro
# Concentration: not given
# Setting: RNA with constant flanks, human and mouse sites, ends assumed
# Reference: input RNA pool
# Reading: higher = stronger binding
Strand,bound/input enrichment [ratio]
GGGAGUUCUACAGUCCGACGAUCAGCUUGGAUUCUAAGGCGAAUAUUGUACAUGGUCUGUCAGUCUUGGAAAUCUGUCUUAUAAUAGCAAUGAAACAUUUAAAUGACAUAUAUGAAGAGGAGCCCUUUAAUUUUCAAAUGGUGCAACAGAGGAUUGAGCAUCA,3.89
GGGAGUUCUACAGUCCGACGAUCUGGACAGCUGAUAAAUUUAAUCCUUCUUUGUAAUACUUUCUAUGUGACAUUUCUCUUCCCCUUAGAAACACUGCAAAUUUUAACUGUAGGUAUGAUCUCUUCUGGUGUUGACUGGACUGCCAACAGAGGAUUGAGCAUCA,9.21
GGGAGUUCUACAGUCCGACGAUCUUCUUGCCCAUGGAAUCUCCAGGGGUGGAAAUAGGGGAUGUGGCCACUGGUGGGCCUUGCUUAGUCCCUGCCUUGUUGUCUUAUGGUCUCCACUUGCUUUUCUGUCUUGUCUUUUUCUUUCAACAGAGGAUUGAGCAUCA,0.156
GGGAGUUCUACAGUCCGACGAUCAGAAUGUCCCACUUGCUGUCUCUUAGAGGCUGAGCUUCAUUUCUAUGAGCAAAGAGCUCAUUUAGCAAUGUAGUUAUUUCAGUAUUUAUUUCUAUUAUGGAAUCCCUGGGGUUCAGAAUGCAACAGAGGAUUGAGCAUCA,2.08
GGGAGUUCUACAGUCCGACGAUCAGUACAGACUGAGAUUUGAAGGAAACAUGCACAAAUCUGUAAAACAUAGACCUUCGCUUUAUUUUUGUAAGUAUCACCUGCCACCAUGUUUUGUAAUUUGAGGUCUUGAUUUCACCAUUGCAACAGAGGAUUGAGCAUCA,0.242
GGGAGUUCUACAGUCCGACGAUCAGCUUCUACCGAACCAGAACCUUGCAGGCACUGAGUAAUGAGAAGAAAGCCAAGAAGGUACGUUUCUACCGCAAUGGGGACCGCUACUUCAAGGGGAUUGUGUACGCUGUGUCCUCUGACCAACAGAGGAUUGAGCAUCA,0.123
